{"data": "Experimental data pooled from the literature", "note": "Each numbered part is a random draw from the data of one study; scales do not carry over between parts."}
{"data": "Study 1", "target": "Ras GTPase-activating protein-binding protein 1, full length (G3BP1, Homo sapiens, UniProt Q13283)", "technique": "RNA Bind-n-Seq", "form": "RNA", "matrix": "in vitro", "tested at": "200 nM", "notes": "whole 134-nt RNA, ends assumed", "with": "150 mM LiCl", "reference": "input library", "reading": "higher = stronger binding", "all molecules": "7-deaza-guanosine replaces G", "constant ends, left off below": "GGGAGUUCUACAGUCCGACGAUC … UGGAAUUCUCGGGUGUCAAGG", "UniProt Q13283, sequence (whole entry, looked up)": "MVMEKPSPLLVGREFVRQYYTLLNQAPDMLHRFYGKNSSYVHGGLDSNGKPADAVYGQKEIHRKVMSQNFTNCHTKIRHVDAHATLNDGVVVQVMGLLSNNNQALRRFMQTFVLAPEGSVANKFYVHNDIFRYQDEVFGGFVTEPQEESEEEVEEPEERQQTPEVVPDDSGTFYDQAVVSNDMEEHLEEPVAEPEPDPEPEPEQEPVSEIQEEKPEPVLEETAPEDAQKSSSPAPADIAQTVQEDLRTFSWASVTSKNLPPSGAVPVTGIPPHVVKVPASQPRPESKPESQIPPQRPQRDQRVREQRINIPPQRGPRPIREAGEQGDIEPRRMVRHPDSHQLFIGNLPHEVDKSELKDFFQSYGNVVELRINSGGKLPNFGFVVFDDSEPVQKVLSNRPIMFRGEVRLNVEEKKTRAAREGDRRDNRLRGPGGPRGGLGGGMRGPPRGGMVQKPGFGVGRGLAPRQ"}
{"Sequence": "UGGCCCUGGUGGCAUGCGGGGAGGAAGAGGUGGCCUCGUGGAUCGUGGUGGUCCCGGUGGAAUGUUCAGAGGUGGCCGUGGUGGAGACAG", "log2 enrichment": 0.392}
{"Sequence": "UCAAGUCCUGUGCUACACAUCGUAUGUACCGAAUCGGAAAAAGGUUUUUGGAGGAAAGUAUUAUGUUACGCCGUUCGGAUCUGCACUUCC", "log2 enrichment": -0.135}
{"Sequence": "GUCCUGUGCUACACAUCGUAUGUACCGAAUCGGUUUUUUUGGAAAAAAAGGUUUUUGGAAAGUAUUAUGUUACGCCGUUCGGAUCUGCAC", "log2 enrichment": -3.1}
{"Sequence": "AAGUCCUGUGCUACACAUCGUAUGUACCGAAUCGGAAAAAAAGGAGGUUUUUUUGGAAAGUAUUAUGUUACGCCGUUCGGAUCUGCACUU", "log2 enrichment": -1.44}
{"Sequence": "CAAGUCCUGUGCUACACAUCGUAUGUACCGAAUCGGGAAAAAGGGAAAGGGUGGGAAAGUAUUAUGUUACGCCGUUCGGAUCUGCACUUC", "log2 enrichment": -0.384}
{"Sequence": "ACCAUGCAGGUGGGCAUCUUUGGGAAGUGGGGCAAGGGGGGGAUAGGGCGGGGGGUAACACUUUGGGAACAGGUGGUCCCAGGUCGUUUC", "log2 enrichment": 0.206}
{"Sequence": "CUCAAGUCCUGUGCUACACAUCGUAUGUACCGAAUCGGAAAGGGAAAGGAAAGGAAAGUAUUAUGUUACGCCGUUCGGAUCUGCACUUCC", "log2 enrichment": -0.135}
{"Sequence": "AGUCCUGUGCUACACAUCGUAUGUACCGAAUCGGGCCCCGGGGCCCCGGGGCCCCGGGAAAGUAUUAUGUUACGCCGUUCGGAUCUGCAC", "log2 enrichment": -0.0682}
{"Sequence": "AAGUCCUGUGCUACACAUCGUAUGUACCGAAUCGGUUUUGGGGUUUUGGGGUUUUGGAAAGUAUUAUGUUACGCCGUUCGGAUCUGCACU", "log2 enrichment": -0.0101}
{"Sequence": "UCAAGUCCUGUGCUACACAUCGUAUGUACCGAAUCGGGGCCCGGCCCGGCCCGGGAAAGUAUUAUGUUACGCCGUUCGGAUCUGCACUUC", "log2 enrichment": -0.483}
{"Sequence": "CCUGUGCUACACAUCGUAUGUACCGAAUCGGGGUGGGGAAAAAAAGGGGUUUUUUUGGGGAAAGUAUUAUGUUACGCCGUUCGGAUCUGC", "log2 enrichment": -0.0574}
{"data": "Study 2", "target": "RING finger protein unkempt homolog, zinc fingers 1-6, GST-SBP tag (UNK, Homo sapiens, UniProt Q9C0B0, residues 30-357)", "technique": "RNA Bind-n-Seq", "form": "RNA", "matrix": "in vitro", "tested at": "not given", "notes": "RNA with constant flanks, human-mouse chimeric sites, ends assumed", "reference": "input RNA pool", "reading": "higher = stronger binding", "constant ends, left off below": "GGGAGUUCUACAGUCCGACGAUC … CAACAGAGGAUUGAGCAUCA", "UniProt Q9C0B0, sequence (30-357, looked up)": "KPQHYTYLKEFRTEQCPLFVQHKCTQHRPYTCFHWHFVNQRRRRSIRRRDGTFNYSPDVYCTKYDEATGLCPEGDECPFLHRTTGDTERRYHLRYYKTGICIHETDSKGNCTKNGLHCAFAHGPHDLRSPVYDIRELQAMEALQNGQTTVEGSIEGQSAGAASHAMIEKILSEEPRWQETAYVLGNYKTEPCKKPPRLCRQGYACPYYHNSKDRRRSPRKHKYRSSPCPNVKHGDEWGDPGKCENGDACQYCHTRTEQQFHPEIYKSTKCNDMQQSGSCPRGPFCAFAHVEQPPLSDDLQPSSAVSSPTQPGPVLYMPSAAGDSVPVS"}
{"Sequence": "GUUGCCAGCUUCCGGUUGGCCUCCAUCCGGUUCUCUCAGUGCUACGUUGUCUCUACGCUCUCAAUCCGCCAUCCAACAAACAUGGAUCAGGUAAUGCAGUUUGUGGAGCCCAGCCGGCAG", "bound/input enrichment [ratio]": 0.115}
{"Sequence": "AAAGUGAUAACCAUGUUUGUCCAACGACAGGUAUUUUCGGAGAGCAAAGAUGAGAUUGCGUUAGUCCUGUUUGGUACAGAUGGCACUGAUAAUGCCCUUGCUGGCAAGGACCAGUAUCAG", "bound/input enrichment [ratio]": 0.148}
{"Sequence": "CUUUUUAAGAAGAUAUGUGAUGGGAUCUUUUAUACCCCUCAAUAUUUAAACCCUUCAGUAAUCAGCCUUUUGAAACAUAUGCUGCAGGUGGAUCCCAUGAAGAGGGCCACAAUCAAAGAU", "bound/input enrichment [ratio]": 0.228}
{"Sequence": "AGAAUCUGUGACUGGCUUUACUUAAUUGGUCAUUGAUAGCUUAACAAACAUGGAGAUGAGAUUAGAAAUCUUGACAUCAACAGGUAUUAAGCAGAAAAAACCAUGGCCACGUGUCUCCUG", "bound/input enrichment [ratio]": 0.119}
{"Sequence": "AGAAUCUUGGGACUGUUUUGCUUGAUUGGUCAUUGGUAGCUUAACAAACAUGGAGAUAAGAUUAGAAAUCUUGACAUCAACAGGUAUUAAGCAGAAAAAACCAUGGCCACGUGUCUCCUG", "bound/input enrichment [ratio]": 0.102}
{"Sequence": "AUAAAGGCUAUGUUGAGUGGUCCAGGUCAGUUUGCUGAGAAUGAAACCAACGAGGUCAAUUUUAGAGAGAUACCUUCACAUGUGCUAUCGAAAGUAUGCAUGUAUUUUACCUACAAGGUC", "bound/input enrichment [ratio]": 0.128}
{"Sequence": "UUAAUCCCCUUCGUUGCUCCCCCACUUCUCAUGGUAAUAACAAAGUCUUAUAUCCCCGUCCUAGCUUUUACUCAGAUGGCUUAUGGAGCCGGUUUCCUAGCUUUCUUGGGAGGGAUCAGA", "bound/input enrichment [ratio]": 0.895}
{"Sequence": "GGGACUGAUUCAUUCCAAGGACAGGCCACCCCAUUUGGUGUUUGGAAUGAUGACAGUAUGGAAGGGCCUAGUCAAAAUGUUGAAGCUGAGUCAAUUCAGGAUGCCAUGAGUAUGGAAGAG", "bound/input enrichment [ratio]": 0.331}
{"Sequence": "GCCACCAGAUCCCAGAAACAUGACCCUUGCUGCCUACAAAGAGAAGAUGAAGGAACUCCCGCUGGUGUCCUUGUUCUGCUCCUGCUUCCUGGCCGAUCCCCUGAAUAAAUCAUCCUACAA", "bound/input enrichment [ratio]": 0.395}
{"Sequence": "UGGCGCCUGCGCUCCCCGUUUUUAAAUUUAAGUGUAUUUUUAUAAGAUACAUGUAUUUACAAUUGAGCUUUUGUUACAUAAUGCUGAAAUGCUACUGGAGAUUAUGAAAAAAUGUUAAAU", "bound/input enrichment [ratio]": 0.361}
{"Sequence": "GAAUCCUACUCAGGCGGAUUUUGCAACACCAAGCUCACAGCAGCAGCAUCUUAGUCACAGUUAGGUAGUUUUGGGGCUCUGUGGCCAUGGUUUUACUCACAUGCAGGUUUGGAAAAUGUA", "bound/input enrichment [ratio]": 2.54}
{"data": "Study 3", "target": "Prothrombin, mature alpha-thrombin (F2, Homo sapiens, UniProt P00734)", "technique": "aptamer microarray, sandwich", "form": "DNA with 2'F-ANA", "matrix": "in vitro", "tested at": "200 nM", "notes": "whole 15-mer aptamer, many near background", "with": "Cy3 exosite-II aptamer, 400 nM", "reading": "higher = stronger binding", "sequence": "GGTTGGTGTGGTTGG"}
{"Modification": "2'F-ANA at 1 3 9 11 14 15", "mean fluorescence intensity [a.u.]": 122}
{"Modification": "2'F-ANA at 1 2 3 4 7 8 10 11 13", "mean fluorescence intensity [a.u.]": 55.4}
{"Modification": "2'F-ANA at 3 4 5 7 11", "mean fluorescence intensity [a.u.]": 84.9}
{"Modification": "2'F-ANA at 1 3 5 6 7 12 14", "mean fluorescence intensity [a.u.]": 48}
{"Modification": "2'F-ANA at 1 3 5 10 13 14 15", "mean fluorescence intensity [a.u.]": 50.1}
{"Modification": "2'F-ANA at 1 2 3 7 8 9 12 13 14", "mean fluorescence intensity [a.u.]": 91.9}
{"Modification": "2'F-ANA at 2 3 4 6 7 10 11 12 14", "mean fluorescence intensity [a.u.]": 159}
{"Modification": "2'F-ANA at 2 7 8 10 11 12 13 14 15", "mean fluorescence intensity [a.u.]": 87.4}
{"Modification": "2'F-ANA at 2 4 5 7 8 10 11 13 15", "mean fluorescence intensity [a.u.]": 52.3}
{"Modification": "2'F-ANA at 1 2 3 4 5 6 8 9 11 12 13 14 15", "mean fluorescence intensity [a.u.]": 53.6}
{"Modification": "2'F-ANA at 3 4 5 7 9 10 11 12 14 15", "mean fluorescence intensity [a.u.]": 51.6}
{"Modification": "2'F-ANA at 6 9 11 12 13 14", "mean fluorescence intensity [a.u.]": 166}
{"Modification": "2'F-ANA at 1 2 3 5 6 9 10 13 14", "mean fluorescence intensity [a.u.]": 46.6}
{"Modification": "2'F-ANA at 2 3 7 14 15", "mean fluorescence intensity [a.u.]": 450}
{"Modification": "2'F-ANA at 2 6 8 9 10 12 13 14 15", "mean fluorescence intensity [a.u.]": 79.5}
{"Modification": "2'F-ANA at 3 7 8 11 14 15", "mean fluorescence intensity [a.u.]": 647}
{"Modification": "2'F-ANA at 1 2 4 13", "mean fluorescence intensity [a.u.]": 83.7}
{"Modification": "2'F-ANA at 3 5 6 12 13", "mean fluorescence intensity [a.u.]": 222}
{"Modification": "2'F-ANA at 4 6 7 8 9 12 13 15", "mean fluorescence intensity [a.u.]": 346}
{"Modification": "2'F-ANA at 1 5 7 8 9 12 14 15", "mean fluorescence intensity [a.u.]": 51.4}
{"Modification": "2'F-ANA at 1 2 3 5 6 7 8 10 13 14", "mean fluorescence intensity [a.u.]": 51.7}
{"Modification": "2'F-ANA at 1 3 4 5 8 10 14 15", "mean fluorescence intensity [a.u.]": 60.1}
{"Modification": "2'F-ANA at 3 10 11 14 15", "mean fluorescence intensity [a.u.]": 332}
{"Modification": "2'F-ANA at 1 3 4 5 11 12", "mean fluorescence intensity [a.u.]": 94.5}
{"Modification": "2'F-ANA at 1 3 5 7 10 11 15", "mean fluorescence intensity [a.u.]": 64.5}
{"data": "Study 4", "target": "Histone acetyltransferase KAT6A, winged helix 2, GST fusion (KAT6A, Homo sapiens, UniProt Q92794, residues 85-181)", "technique": "protein binding microarray", "form": "double-stranded DNA, one strand shown", "matrix": "in vitro", "tested at": "not given", "notes": "8-mer, flanks averaged, mean of 2 arrays, mostly near background", "reference": "not given", "reading": "higher = stronger binding", "Target sequence (chain)": "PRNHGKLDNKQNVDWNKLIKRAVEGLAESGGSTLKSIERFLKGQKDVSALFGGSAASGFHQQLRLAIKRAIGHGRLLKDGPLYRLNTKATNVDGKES"}
{"Sequence": "GCTCCCGA", "E-score": -0.00685}
{"Sequence": "ATCTCGAC", "E-score": -0.0713}
{"Sequence": "CCGGAGAG", "E-score": 0.0468}
{"Sequence": "AACCGTAG", "E-score": -0.196}
{"Sequence": "CTTTTGTC", "E-score": 0.0263}
{"Sequence": "CGGCGGTA", "E-score": 0.172}
{"Sequence": "GATAGTCC", "E-score": -0.0846}
{"Sequence": "GAATCTTA", "E-score": -0.0171}
{"Sequence": "AGCTGACA", "E-score": 0.117}
{"Sequence": "GATTTTAA", "E-score": 0.0227}
{"Sequence": "GGACAAGA", "E-score": -0.0229}
{"Sequence": "ATACGAAG", "E-score": 0.0248}
{"Sequence": "GGAGGCTA", "E-score": -0.0119}
{"Sequence": "CTCTTTGC", "E-score": 0.0501}
{"Sequence": "GGTGCGGA", "E-score": 0.0575}
{"Sequence": "CATAGCCC", "E-score": -0.196}
{"Sequence": "GCTAGTAA", "E-score": -0.0343}
{"Sequence": "AGTCACCC", "E-score": 0.0846}
{"Sequence": "CTCGTAGC", "E-score": 0.0421}
{"Sequence": "CGGTACCC", "E-score": -0.0709}
{"Sequence": "CCGACTCA", "E-score": -0.0585}
{"Sequence": "GTGGACTA", "E-score": 0.0683}
{"Sequence": "AGATGCAC", "E-score": 0.0324}
{"Sequence": "CCTCGTCA", "E-score": 0.0937}
{"Sequence": "CATGCCGA", "E-score": 0.225}
{"note": "A few entries again (study 3):"}
{"Modification": "2'F-ANA at 2 7 8 10 11 12 13 14 15", "mean fluorescence intensity [a.u.]": 87.4}
{"Modification": "2'F-ANA at 1 2 3 5 6 7 8 10 13 14", "mean fluorescence intensity [a.u.]": 51.7}
{"Modification": "2'F-ANA at 1 2 4 13", "mean fluorescence intensity [a.u.]": 83.7}
{"Modification": "2'F-ANA at 1 3 9 11 14 15", "mean fluorescence intensity [a.u.]": 122}
{"Modification": "2'F-ANA at 1 3 5 10 13 14 15", "mean fluorescence intensity [a.u.]": 50.1}
{"Modification": "2'F-ANA at 1 3 4 5 11 12", "mean fluorescence intensity [a.u.]": 94.5}
{"Modification": "2'F-ANA at 1 2 3 5 6 9 10 13 14", "mean fluorescence intensity [a.u.]": 46.6}
